Measured values of several laboratories.
Parts stem from different laboratories: compare values within a part only. Values joined by “and” are separate records of one study, mostly repeats; a detail may differ.

Sample 1
Organism: Sarcocystis neurona
Observed: parasite growth
Tested at: 10 µM
Setting: secondary screen
Measurement: inhibition
COC(=O)C1=C(C)NC(C)=C(C(=O)OCCN(C)Cc2ccccc2)C1c1cccc([N+](=O)[O-])c1 (stereo not drawn): -35.1%
COc1ccc2[nH]c([S+]([O-])Cc3ncc(C)c(OC)c3C)nc2c1 (stereo not drawn): -36.3%
COc1cc(CNC(=O)CCCC/C=C\C(C)C)ccc1O: -65.1%

Sample 2
Cell line: A-375
Tested at: 100 µM
Time: 36 h
Measurement: viability
Cc1nc(Nc2ncc(C(=O)Nc3c(C)cccc3Cl)s2)cc(N2CCN(CCO)CC2)n1: 6.5% and 2.82%
CCN[C@@H]1C[C@H](N)[C@@H](O[C@H]2OC(CN)=CC[C@H]2N)[C@H](O)[C@H]1O[C@H]1OC[C@](C)(O)[C@H](NC)[C@H]1O: 98.6%
C/C=C1\[C@H]2C=C(C)C[C@]1(N)c1ccc(=O)[nH]c1C2: 92.5%

Single results of other studies
CO[C@@H]1[C@H](O)[C@@H](CO)O[C@H]1n1cnc2c(NC3CCCCC3)ncnc21
nuclei count (mouse MPNST tumor cells; high-content nuclear imaging, item: cell number; 10 µM, 12 h, mean of 2 replicates; relative to: plate mean, higher = more cells): 1.27 z-score

CN(C)CC#Cc1ccc(OCCCc2sc(N3CCc4cccc(C(=O)Nc5nc6ccccc6s5)c4C3)nc2C(=O)O)c(F)c1
toxicity (normal human organoids; 0.01 to 10 µM, 4 days): not toxic

CN(C)C/C=C(/c1ccc(Br)cc1)c1cccnc1
nuclei count (mouse MPNST tumor cells; high-content nuclear imaging, item: cell number; 10 µM, 12 h, mean of 2 replicates; relative to: plate mean, higher = more cells): 1.99 z-score

Repeated from above (single results of other studies):
CN(C)C/C=C(/c1ccc(Br)cc1)c1cccnc1
nuclei count (mouse MPNST tumor cells; high-content nuclear imaging, item: cell number; 10 µM, 12 h, mean of 2 replicates; relative to: plate mean, higher = more cells): 1.99 z-score
